Measurements gathered from unrelated publications.
Lines come from different studies, so protocols differ.
Cell line: SR

Compound | test | setting | scale | endpoint | value
S=C([S][Au-][P+](CCCCCC[P+]([Au-][S]C(=S)n1cccn1)(c1ccccc1)c1ccccc1)(c1ccccc1)c1ccccc1)n1cccn1 | cell growth, NCI-60 screen | leukaemia | – | log TGI | -5.62 log10 M
Cc1cc(=O)[nH]c(=O)n1Cc1cn(-c2cc3ccccc3oc2=O)nn1 | NCI60 single-dose screen | 10 µM | – | growth percentage | 113%
CCCCN1CCN(c2ccc3[nH]c(-c4ccc5[nH]c(-c6cc(OC)c(OC)c(OC)c6)nc5c4)nc3c2)CC1 | SRB | 10 µM, 48 h | – | growth percent | 10.7%
CCN(CC)c1ccc(C=NNC(=O)CSc2nc3ccccc3c(=O)n2Cc2ccc(S(N)(=O)=O)cc2)c(O)c1 | NCI five-dose screen | – | – | TGI | > 100 µM
Cc1cc(=O)[nH]n1-c1nc(-c2ccc(Cl)cc2)c2c(NC(=O)c3ccccc3)nnc-2[nH]1 | SRB | 10 µM, NCI60 single-dose screen | baseline: untreated | cell growth | 85.4%
CCCN1CCN(c2ccc3[nH]c(-c4ccc5[nH]c(-c6ccc(C(F)(F)F)cc6)nc5c4)nc3c2)CC1 | SRB | 10 µM, 48 h | – | growth percent | -35.5%
CCOC(=O)CSc1nc(-c2ccc(Cl)cc2)c2c(NC(=O)c3ccccc3)nnc-2[nH]1 | SRB | 10 µM, NCI60 single-dose screen | baseline: untreated | cell growth | 84.9%
CCOc1ccc(-c2nc3cc(-c4nc5cc(N6CCN(C)CC6)ccc5[nH]4)ccc3[nH]2)cc1OCC | SRB | 10 µM, 48 h | – | growth percent | 8.73%
O=C(Nc1nnc2[nH]c(=S)[nH]c(-c3ccc(Cl)cc3)c1-2)c1ccccc1 | SRB | 10 µM, NCI60 single-dose screen | baseline: untreated | cell growth | 91.6%
Cc1cc(=O)[nH]c(=O)n1Cc1cn(-c2c3ccccc3nc3ccccc23)nn1 | NCI60 single-dose screen | 10 µM | – | growth percentage | 11.4%
Cc1cc(C)n(-c2nc(-c3ccc(Cl)cc3)c3c(NC(=O)c4ccccc4)nnc-3[nH]2)n1 | SRB | 10 µM, NCI60 single-dose screen | baseline: untreated | cell growth | 67.8%
O=c1ccn(Cc2cn(-c3c4ccccc4nc4ccccc34)nn2)c(=O)[nH]1 | NCI60 single-dose screen | 10 µM | – | growth percentage | 38.8%
COC(=O)/C=C1\C(=O)C=C2C3CC4CC(CCC4(C)N21)C3(C)NC(C)=O (stereo not drawn) | cell growth | NCI screen | – | IC50 | 18.3 µM
O=C1NC(c2ccccc2)(c2ccccc2)C(=O)N1Cc1cn(-c2cc3ccccc3oc2=O)nn1 | NCI60 single-dose screen | 10 µM | – | growth percentage | 93.1%
CCCN1CCN(c2ccc3[nH]c(-c4ccc5[nH]c(-c6cc(OC)c(OC)c(OC)c6)nc5c4)nc3c2)CC1 | SRB | 10 µM, 48 h | – | growth percent | 34.6%
